Measurements from different studies.
A part holds a random share of what one study measured.

Sample 1 — method: protein-binding microarray; form: double-stranded DNA, one strand shown; sample: in vitro; concentration: 0.8 µM; notes: whole 60-bp probe, no competitor; reading: higher = stronger binding; all sequences stand within: … GTCTTGATTCGCTTGACGCTGCTG
Target: Centromere-binding protein 1, full length, N-terminal tag (CBF1, Saccharomyces cerevisiae, UniProt P17106, residues 1-351)
Sequence of UniProt P17106 (whole entry, looked up): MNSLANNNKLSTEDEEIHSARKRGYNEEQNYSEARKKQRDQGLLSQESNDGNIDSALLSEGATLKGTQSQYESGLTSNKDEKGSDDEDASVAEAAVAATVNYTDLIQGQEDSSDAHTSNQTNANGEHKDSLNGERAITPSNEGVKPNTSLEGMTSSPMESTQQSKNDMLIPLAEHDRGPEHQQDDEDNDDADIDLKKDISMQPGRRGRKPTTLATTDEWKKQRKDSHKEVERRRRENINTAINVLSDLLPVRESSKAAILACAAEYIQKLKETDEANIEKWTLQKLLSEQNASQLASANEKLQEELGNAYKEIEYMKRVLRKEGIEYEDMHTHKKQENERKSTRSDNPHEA
Sequence	fluorescence intensity
CTATTCATAATTTATTTGGTGACATTTCTCTTGTTC	561 a.u.
CTATAGTGTTTTCAAAACACCACGAAAAGACTTTTC	479 a.u.
GAATTACTGTGCAATCACATGTACAAGGCTCTCTAG	1640 a.u.
GAATGCCTTATACACCACCTATTCTGGCATCTGTAG	519 a.u.
CTATCCCAGACGGGAAACGTGTCTCTCGCTTCTTTC	535 a.u.
CTAGGCGCAAATTACCATGTGAGCGTGCGGGAATTC	1020 a.u.
GAATAATAGTGGAATCAGGTGCCTAAATAAATGTAG	1480 a.u.
CTAGAATGCAAACGTGAGGTTGGCGCGCCCTCCTTC	532 a.u.
CTATTGAATCTCCGCTACGTCACATTTTCTACATTC	623 a.u.
GAAGTTTTATCGTATCACGGGATTTTATGCTCTTAG	3150 a.u.
CTAATTTTAGCTGATCACCAGAATGACGCAATCTTC	568 a.u.
GAATCGTTTCGTCTCAACGTGGGAACGATCAAATAG	507 a.u.
CCTAACTACTATAGCCATCACAGATAGCTTCGTACA	513 a.u.
GAAAAACGATCCGACAACGTGCATGGTAATTCATAG	918 a.u.
GAAGGTGCGAAATTTTACGTGATTCATTTTCTTTAG	571 a.u.
CCTAACTACTATAGGCATGCGTAATAGCTTCGTACA	512 a.u.
GAAATCGTGACACTGCTGATGGTTTTGTCATTCTAG	540 a.u.
GAACTCTTTCCTCGCCACCAGATTTTAAGGCAGTAG	561 a.u.
CCTAACTACTATAAACAGGTGAAATAGCTTCGTACA	520 a.u.
CTATACCAACAGCACGGCATGATGACCCCAAACTTC	553 a.u.
CTATGTTGTCAAGTGATCATTAATAATAACATGTTC	2340 a.u.
CCTAACTACTATAATCACCAGTGATAGCTTCGTACA	523 a.u.
CTACCACTTGGGCGTCGGGTGGTGAATCTAATGTTC	474 a.u.

Sample 2 — method: protein binding microarray; form: double-stranded DNA, one strand shown; sample: in vitro; concentration: not given; relative to: not given; reading: higher = stronger binding
Target: Histone acetyltransferase KAT6A, both winged helices, GST fusion (KAT6A, Homo sapiens, UniProt Q92794, residues 1-181)
Notes: 8-mer, flanks averaged, mean of 2 arrays, mostly near background
Construct (chain): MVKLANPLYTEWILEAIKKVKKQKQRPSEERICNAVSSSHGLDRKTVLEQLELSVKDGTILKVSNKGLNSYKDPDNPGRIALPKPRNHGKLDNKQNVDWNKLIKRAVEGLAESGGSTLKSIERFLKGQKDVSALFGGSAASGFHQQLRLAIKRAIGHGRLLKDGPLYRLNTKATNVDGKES
Sequence	E-score
AACTAGAT	-8.5e-05
ATCCATTA	-0.057
ATAGGATG	-0.105
AACCGCGC	0.307
GGGCAACA	-0.026
ATGTGGCG	0.157
GCGGATCA	0.103
CCCAGGTA	-0.218
CGTTCGTC	0.198
ATTGAATA	-0.0271
AAATTATG	-0.00921
CCAACGAA	-0.0189
CTAACAGA	-0.16
GATCAAAC	0.0665
AACGGCCG	0.341
CTGGCGAC	-0.0191
CAATTTCC	0.0719
CCGCGTCC	0.264
CAAAGCCG	0.204
AACATCAT	-0.126
CTCAGCCC	-0.136
ACGCGGTA	0.296
ACTCGCTG	0.0284
CGTGTGAA	-0.00758
CTGGTCAA	-0.127

Sample 3 — method: RNA Bind-n-Seq; form: RNA; sample: in vitro; concentration: 1 µM; notes: whole 134-nt RNA, ends assumed; added: 150 mM KCl; relative to: input library; reading: higher = stronger binding
Target: Ras GTPase-activating protein-binding protein 1, RRM domain (G3BP1, Homo sapiens, UniProt Q13283)
Sequence of UniProt Q13283 (whole entry, looked up): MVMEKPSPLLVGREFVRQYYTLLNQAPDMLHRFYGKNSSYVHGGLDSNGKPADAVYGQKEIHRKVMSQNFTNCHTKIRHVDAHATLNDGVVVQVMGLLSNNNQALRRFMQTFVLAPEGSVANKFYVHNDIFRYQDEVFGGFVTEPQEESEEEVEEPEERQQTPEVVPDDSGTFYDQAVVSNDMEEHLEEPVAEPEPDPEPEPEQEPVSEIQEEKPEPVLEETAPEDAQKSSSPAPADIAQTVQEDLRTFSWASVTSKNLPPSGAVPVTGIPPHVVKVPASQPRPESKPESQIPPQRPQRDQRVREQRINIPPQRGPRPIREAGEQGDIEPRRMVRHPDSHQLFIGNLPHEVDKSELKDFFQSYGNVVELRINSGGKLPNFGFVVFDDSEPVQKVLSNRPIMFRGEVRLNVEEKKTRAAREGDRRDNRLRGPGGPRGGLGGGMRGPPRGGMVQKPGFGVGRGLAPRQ
All sequences stand within: GGGAGUUCUACAGUCCGACGAUC … UGGAAUUCUCGGGUGUCAAGG
Sequence	log2 enrichment
AGUCCUGUGCUACACAUCGUAUGUACCGAAUCGGGGAAAAGGGAAAAGGAAAAGGGGAAAGUAUUAUGUUACGCCGUUCGGAUCUGCACU	0.137
AGUCCUGUGCUACACAUCGUAUGUACCGAAUCGGGGAGGGGAAAAAAAGGGGUGGGGAAAGUAUUAUGUUACGCCGUUCGGAUCUGCACU	0.884
GUCCUGUGCUACACAUCGUAUGUACCGAAUCGGGGAAAAAAAGGGGAGGGGUUUGGGGAAAGUAUUAUGUUACGCCGUUCGGAUCUGCAC	0.878
CUCAAGUCCUGUGCUACACAUCGUAUGUACCGAAUCGGGCCGGCCGGGGCCGGGAAAGUAUUAUGUUACGCCGUUCGGAUCUGCACUUCC	-0.451
CAAGUCCUGUGCUACACAUCGUAUGUACCGAAUCGGGGUGGGGUGGGGAAAGGGGAAAGUAUUAUGUUACGCCGUUCGGAUCUGCACUUC	1.01
CCUGUGCUACACAUCGUAUGUACCGAAUCGGGGAAAAAGGGGUUUUUGGGGAAAAAGGGGAAAGUAUUAUGUUACGCCGUUCGGAUCUGC	0.723
UGGGAGGUGGAUUUUGUUUAUUUUUUUAGCUCAUAUCCAGGGGUGGGAAUUUUUUUUUAAUAUGUGUCAUGAAUAAAGUUGUUUUUGAAA	1.81
UAACUUUAGAGGAGGAUCUGAUGGAUAUAGCAGUGGACGUGGAUUUGGGGAUGGCUAUAAUGGGUAUGGAGGAGGACCUGGAGGUGGCAA	-0.671
AAGUCCUGUGCUACACAUCGUAUGUACCGAAUCGGGGUUUUGGUUUUGGUUUUGGGGAAAGUAUUAUGUUACGCCGUUCGGAUCUGCACU	-0.345
GUCCUGUGCUACACAUCGUAUGUACCGAAUCGGGAAAAAGGAAAAAGGGAAAAAGGGGAAAGUAUUAUGUUACGCCGUUCGGAUCUGCAC	0.0158
UGGGAGGUGGAUUUUGUUUAUUUUUUUAGCUCAUUUCCAGGGGUGGGAAUUUUUUUUUAAUCUGUGUCAUGAAUAAAGUUGUUUUUGAAA	2.17
UUAAGUGUAUUGGAGCCCCAAGUUCUCAAUUAUUUGAGCCUCCGGGCGACAGAGCAAGAAAAGGUGAGUGGAUAGCGCAGGCAUAUUGGU	-0.162
UCAAGUCCUGUGCUACACAUCGUAUGUACCGAAUCGGAAAGGAAAGGGGAAAGGGAAAGUAUUAUGUUACGCCGUUCGGAUCUGCACUUC	-0.272
UUGCUAACUUCAAGAUAGAGCCUCCUGGACUUUUCCGUGGCCGCGGCAACCACCCCAAGAUGGGCAUGCUGAAGAGACGAAUCAUGCCCG	-0.0393

Sample 4 — method: RNA Bind-n-Seq; form: RNA; sample: in vitro; concentration: 365 nM; relative to: no-protein control; reading: higher = stronger binding
Target: RNA binding protein fox-1 homolog 2, RRM domain, GST-SBP tag (RBFOX2, Homo sapiens, UniProt O43251-10, residues 100-194)
Notes: natural RNA segment, single round, ends assumed
All sequences stand within: GGGAGUUCUACAGUCCGACGAUC … UGGAAUUCUCGGGUGCCAA
Construct (chain): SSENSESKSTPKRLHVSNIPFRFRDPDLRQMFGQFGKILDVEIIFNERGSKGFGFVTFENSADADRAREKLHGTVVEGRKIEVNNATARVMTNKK
Sequence	RBNS enrichment (R)
UGAAGAGAAAUGAGACGUGAUUAUACUACUUUUUCAAUUGCAGGUUUAAGGAGUUCAGAUUUAAUGACCAAAGUCAUACAGAUCAUGGAAUCUGUCGUCGUCUUAUACAG	0.284
CCGGUCUAUGUCGAGAGCUGGCCAAAGAGCCUUUCCAAAGAGGAGCGAUGGGCCCCUGGCCCCGCCUGCCUGCCACCCUGCCCCUUGCCAUCCAUUCUGGAAACACCUGU	0.894
UCCAAAAAAUGACCGUGAGGGGCCUCAGUGAGACCAGAUUGUGUCAUUUGGCUCCACCUUCAUCUUGCAGAGCCAGCUGAUCUCAGAUUGCCAAGAAACUAGAAGCCACU	0.282
GUGGAAGGUCAUUCCUGAGAAGUGGGGGCUUGUUUUAUGAAACCUUAAAGGCCAAACGGACUGUCCCAUUUUGGGGAUCAGGACAUCCCUGUCCUUAUCUCCUGUCAUAG	0.311
AUUCUGGGCUUGUAUAAUGCCUGUUGAUCUUGCCCUCUUAAUCAGUUUAUUGUUAUUCACAAAUGCAAAUAGGUUUUCAAACUACAGACAGUUUUGAAAGACAUUAAUUC	0.27
CAUUGACCUUGGUCAAGCAUCUUAAAGAAGGCAACCCUAAUUGAGAGCUGUCUUGGCUAAUACUCUGCACCACAAUUGUGAUGUCCUAGUCCUACCACUAGAGGGCAUGG	0.245
AGACUGUUGUUUUUUUAGAGCUUGAUUGUGGGAGAAAAGCUUGUGUGAAAUUCCCUCUUCACCUCCCCACCCCCCAAAAAAUAAAAGGGGGCAUAAACUUUAUUCCACUG	0.663
GUUCUGACCCGUCAGCAGCCUGCUUCUGACCCAAGAUGGCCUCGUGACUAGACCUGUUUUUAAGGAAGCGCUGUCUGUUUUUAAGUAUUCUUAAAAACGUUUUGGAAAGC	0.25
CUUAGGGGGCAGAAGCCAAUGGGUGGAAAGAACAGUAGAGGUUCUGUAUAGCAUGGAAGUCAACUGCAGCCCAUAUCACACCUGGUCCUGGGAAUGUGUCCUCAUCACUU	3.47
GAGCCAAGGACCACAGAGCCUCAGCCAGCCCAGGAUCCGUCCUCAUUUUAUUGGUGAUGAUGAAUGGGAAUGAAAUCAGGGGGCUGUCUACUAGAGCCUGGAAUAAAUAU	0.407
GCCUUGGAUGGAGACAGACACUACUGGAGAAGGGGGCUGCCUUCCCCAGAAAGAAUACUACCUAAAUGCUGGUUCAUCAGAGAGUAACUGUGAAGAGCAUCUCAGAUAAG	0.976
UUUUUUUAAGUGUGAAAGAUUAGUGCCUUUUGGCAUACUUUUGAUUUUAGAGGAUAUAGUAUCGGCAUUGACAAAUCACGUAGAAACAAAGAAUGCUAUAGAUGACAACA	0.53
